# Measurements pooled from the literature.
# Lines come from different studies, so protocols differ.
Structure (SMILES),species,medium,route,dose,setting,Tmax [h]
CC[C@H](C)[C@@H]1NC(=O)[C@H](Cc2ccc(O)cc2)NC(=O)[C@@H](N)CSSC[C@@H](C(=O)N2CCC[C@H]2C(=O)N[C@@H](CCCCNC(=O)COCCOCCNC(=O)COCCOCCNC(=O)CC[C@H](NC(=O)CC[C@H](NC(=O)CCCCCCCCCCCCCCCCC(=O)O)C(=O)O)C(=O)O)C(=O)NCC(N)=O)NC(=O)[C@H](CC(N)=O)NC(=O)[C@H](CCC(N)=O)NC1=O,C57BL/6 mouse,plasma,intraperitoneal,1 mg/kg,single dose,1 to 4
CCCCCCCCCCCCCCCC(=O)NCCCC[C@H](NC(=O)[C@H](CCCCN)NC(=O)[C@H](CCCCN)NC(=O)[C@@H]1CCCN1C(=O)CNC(=O)[C@H](CC(C)C)NC(=O)[C@H](CC(C)C)NC(=O)[C@H](Cc1ccc(O)cc1)NC(=O)CNC(=O)[C@H](C)NC(=O)[C@H](CO)NC(=O)[C@H](CC(N)=O)NC(=O)[C@H](CC(C)C)NC(=O)[C@@H](NC(=O)[C@H](Cc1c[nH]c2ccccc12)NC(=O)CNC)[C@@H](C)O)C(=O)N[C@@H](CCCCN)C(N)=O,CF-1 mouse,plasma,intraperitoneal,2 mg/kg,,1
CC(C)[C@H]1NC(=O)C[C@H]2/C=C/CCSSC[C@@H](NC1=O)C(=O)N[C@H](Cc1cccc3ccccc13)C(=O)NCC(=O)O2,nude mouse,blood,oral,24 mg/kg,,0.25
CCCCCCCC(=O)NC[C@H](NC(=O)[C@H](CO)NC(=O)CN)C(=O)N[C@@H](Cc1ccccc1)C(=O)N[C@@H](CC(C)C)C(=O)N[C@@H](CO)C(=O)N1CCC[C@H]1C(=O)N[C@@H](CCC(=O)O)C(=O)N[C@@H](Cc1c[nH]cn1)C(=O)N[C@@H](CCC(N)=O)C(=O)N[C@@H](CCCNC(=N)N)C(=O)N[C@H](C(=O)N[C@@H](CCC(N)=O)C(=O)N[C@H](C(=O)N[C@@H](CCCNC(=N)N)C(=O)N1CCC[C@H]1C(=O)N1CCC[C@H]1C(=O)N[C@@H](Cc1c[nH]cn1)C(=O)N[C@@H](CCCCN)C(=O)N[C@@H](C)C(=O)N1CCC[C@H]1C(=O)N[C@@H](Cc1c[nH]cn1)C(=O)N[C@H](C(=O)N[C@H](C(=O)O)C(C)C)C(C)C)C(C)C)C(C)C,mouse,plasma,subcutaneous,7.2 mg/kg,,0.0833
NC1CCN(C(=O)OC2CCCC3(C2)OOC2(O3)C3CC4CC(C3)CC2C4)CC1 (stereo not drawn),mouse,plasma,oral,50 mg/kg,single dose,2
CCCCCCCC(=O)OC[C@H](NC(=O)[C@H](CO)NC(=O)CN)C(=O)N[C@@H](Cc1ccccc1)C(=O)N[C@@H](CC(C)C)C(=O)N[C@@H](CO)C(=O)N1CCC[C@H]1C(=O)N[C@@H](CCC(=O)O)C(=O)N[C@@H](Cc1cnc[nH]1)C(=O)N[C@@H](CCC(N)=O)C(=O)N[C@@H](CCCNC(=N)N)C(=O)N[C@H](C(=O)N[C@@H](CCC(N)=O)C(=O)N[C@@H](CCC(N)=O)C(=O)N[C@@H](CCCNC(=N)N)C(=O)N[C@@H](CCCCN)C(=O)N[C@@H](CCC(=O)O)C(=O)N[C@@H](CO)C(=O)N[C@@H](CCCCN)C(=O)N[C@@H](CCCCN)C(=O)N1CCC[C@H]1C(=O)N1CCC[C@H]1C(=O)N[C@@H](C)C(=O)N[C@@H](CCCCN)C(=O)N[C@@H](CC(C)C)C(=O)N[C@@H](CCC(N)=O)C(=O)N1CCC[C@H]1C(=O)N[C@@H](CCCNC(=N)N)C(=O)O)C(C)C,mouse,plasma,intraperitoneal,7.2 mg/kg,,0.0833
COc1ccc(F)cc1S(=O)(=O)Nc1cnc2c(c1)C(=O)NCCO2,male C57BL/6 mouse,plasma,oral,0.1 mg/kg,single dose,1
C/C(=N\OCCCN1CCCCC1)c1ccc(C(F)(F)F)cc1,mouse,plasma,oral,10 mg/kg,,0.75
O=c1cc(-c2ccccc2)oc2c(Br)c(O)c(O)c(O)c12,C57BL/6 mouse,plasma,oral,50 mg/kg,single dose,2

# A few entries again:
Structure (SMILES),species,medium,route,dose,setting,Tmax [h]
C/C(=N\OCCCN1CCCCC1)c1ccc(C(F)(F)F)cc1,mouse,plasma,oral,10 mg/kg,,0.75
